Published values pooled from the literature.
Protocols differ between the studies behind these lines.
PRKAA1: 5'-AMP-activated protein kinase catalytic subunit alpha-1 (PRKAA1, Homo sapiens, UniProt Q13131)
UniProt Q13131, sequence (whole entry, looked up): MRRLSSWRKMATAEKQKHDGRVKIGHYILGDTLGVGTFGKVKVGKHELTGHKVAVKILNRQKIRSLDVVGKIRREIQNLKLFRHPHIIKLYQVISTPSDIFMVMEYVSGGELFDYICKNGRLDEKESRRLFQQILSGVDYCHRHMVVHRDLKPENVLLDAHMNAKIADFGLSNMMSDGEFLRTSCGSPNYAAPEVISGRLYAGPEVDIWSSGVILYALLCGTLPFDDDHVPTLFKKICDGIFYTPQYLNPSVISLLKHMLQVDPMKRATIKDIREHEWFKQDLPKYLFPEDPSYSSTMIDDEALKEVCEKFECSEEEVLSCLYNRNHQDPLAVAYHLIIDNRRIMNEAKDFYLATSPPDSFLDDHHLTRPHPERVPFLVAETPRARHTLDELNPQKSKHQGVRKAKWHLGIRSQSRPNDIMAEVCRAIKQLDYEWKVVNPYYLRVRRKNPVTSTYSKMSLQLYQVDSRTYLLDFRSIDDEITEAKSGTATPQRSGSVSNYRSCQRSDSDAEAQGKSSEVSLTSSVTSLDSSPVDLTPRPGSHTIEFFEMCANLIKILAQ
PRKAA1 with beta1, gamma1: 5'-AMP-activated protein kinase catalytic subunit alpha-1, with beta1, gamma1 (PRKAA1, Homo sapiens, UniProt Q13131)
Nuclear receptor subfamily 2 group C member 2 ligand-binding domain: Nuclear receptor subfamily 2 group C member 2, ligand-binding domain (Homo sapiens, UniProt P49116)
UniProt P49116, sequence (whole entry, looked up): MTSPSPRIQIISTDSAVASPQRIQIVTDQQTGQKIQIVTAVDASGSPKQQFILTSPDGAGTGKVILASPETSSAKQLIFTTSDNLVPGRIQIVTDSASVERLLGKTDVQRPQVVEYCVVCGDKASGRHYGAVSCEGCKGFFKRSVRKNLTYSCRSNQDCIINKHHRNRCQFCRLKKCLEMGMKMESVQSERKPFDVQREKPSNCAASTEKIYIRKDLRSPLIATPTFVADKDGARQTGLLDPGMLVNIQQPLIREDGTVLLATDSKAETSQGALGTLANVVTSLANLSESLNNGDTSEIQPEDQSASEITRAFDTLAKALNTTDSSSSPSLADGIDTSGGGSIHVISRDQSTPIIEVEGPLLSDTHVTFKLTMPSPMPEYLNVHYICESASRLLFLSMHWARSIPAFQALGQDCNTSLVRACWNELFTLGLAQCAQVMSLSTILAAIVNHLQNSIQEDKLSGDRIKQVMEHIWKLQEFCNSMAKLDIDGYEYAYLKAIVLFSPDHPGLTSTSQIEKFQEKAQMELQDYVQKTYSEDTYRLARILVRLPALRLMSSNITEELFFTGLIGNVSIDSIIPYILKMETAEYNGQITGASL
UniProt P61981, sequence (whole entry, looked up): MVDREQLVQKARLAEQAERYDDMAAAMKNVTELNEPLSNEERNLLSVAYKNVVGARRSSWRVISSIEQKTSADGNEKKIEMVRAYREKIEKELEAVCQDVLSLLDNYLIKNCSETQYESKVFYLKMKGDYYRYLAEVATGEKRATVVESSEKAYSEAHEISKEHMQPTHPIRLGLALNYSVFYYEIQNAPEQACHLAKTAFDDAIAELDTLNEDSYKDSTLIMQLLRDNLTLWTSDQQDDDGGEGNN
UniProt Q04206, sequence (whole entry, looked up): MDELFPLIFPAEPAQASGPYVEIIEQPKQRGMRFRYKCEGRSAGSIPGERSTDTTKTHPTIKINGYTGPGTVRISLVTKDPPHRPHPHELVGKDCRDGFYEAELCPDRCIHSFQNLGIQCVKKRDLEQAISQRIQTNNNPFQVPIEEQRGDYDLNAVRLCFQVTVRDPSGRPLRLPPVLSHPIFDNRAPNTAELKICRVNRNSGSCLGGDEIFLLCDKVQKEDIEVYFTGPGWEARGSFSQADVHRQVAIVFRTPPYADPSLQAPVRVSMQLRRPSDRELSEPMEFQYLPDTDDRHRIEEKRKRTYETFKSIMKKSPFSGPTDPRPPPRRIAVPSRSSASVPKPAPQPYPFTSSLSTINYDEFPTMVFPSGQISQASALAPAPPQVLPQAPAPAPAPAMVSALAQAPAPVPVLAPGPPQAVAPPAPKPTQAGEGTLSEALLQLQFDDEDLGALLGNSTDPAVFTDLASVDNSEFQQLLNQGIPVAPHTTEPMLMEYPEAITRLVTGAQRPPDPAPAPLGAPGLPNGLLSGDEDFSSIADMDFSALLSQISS

SMILES | target or system | assay | test system | conditions | how to read | measurement | result
N#CC1(c2ccc(NC(=O)c3cccnc3NCc3ccncc3)cc2)CCCC1 | PRKAA1 | phosphoproteomics |  | concentration not given | baseline: untreated | phosphorylation fold change | 3.71 fold
COC1CCN(C(=O)c2ccc(C=O)cc2)CC1 | YWHAG/RELA, phospho-Ser45 p65 peptide (Homo sapiens, UniProt P61981+Q04206) | ternary complex formation, stabilizer, fluorescence anisotropy |  |  |  | EC50 | > 1000 µM
CC[C@@H]1[C@H](F)C(=O)N[C@@H]1COc1nccc2cc(C(N)=O)c(OC)cc12 | PRKAA1 | ATP probe binding, KiNativ profiling, refers to: ATP loop probe site | THP-1 cell lysate | 0.2 mM |  | inhibition | 8.7%
CC/C(=N\NC(=O)NCc1cccc(O)c1)c1ccc(O)c(C)c1O | PRKAA1 with beta1, gamma1 | kinase activity |  | 0.1 µM |  | inhibition | 11.4%
O=C1Cc2cc(CCN3CCN(c4nsc5ccccc45)CC3)c(Cl)cc2N1 | Nuclear receptor subfamily 2 group C member 2 ligand-binding domain | SPR imaging |  |  |  | Kd | 0.0249 nM
COc1cc(-c2cncc3c2CN(C)Cc2cc(N4CCNCC4)ccc2-3)cc(OC)c1OC | PRKAA1 | enzyme activity |  | 1 µM, together with: 10 µM ATP | baseline: DMSO | remaining activity | 96%
CN(C)C1CCN(CC#Cc2nn(C3CCCC3)c3nc(NCc4ccccc4)ncc23)C1 (stereo not shown) | PRKAA1 with beta1, gamma1 | enzyme activity, inhibitor, Z'-LYTE |  | 100 nM |  | inhibition | 0%
NC(=O)c1ccc(I)c([N+](=O)[O-])c1 | OCI-Ly1 |  |  | 1 µM, 120 h |  | viability | 161%
CCCOc1ccc(OC)c(F)c1C(=O)c1ccc(C(=O)N[C@@H]2CNC[C@H]2NC(=O)c2ccc3[nH]ncc3c2)cc1 | PRKAA1 | kinase activity |  | 10 µM |  | remaining activity | 1%
Cc1cnc(NC2CCOCC2)nc1-n1cnc(C(=O)NC(CN)c2cc(F)cc(Cl)c2)c1 (stereo not shown) | PRKAA1 | radiometric |  | 1 µM |  | remaining activity | 34%
CN1C(C(=O)Nc2ccccn2)=C(O)c2sc(Cl)cc2S1(=O)=O | Nuclear receptor subfamily 2 group C member 2 ligand-binding domain | SPR imaging |  |  |  | Kd | 0.00934 nM
COc1cc2ncnc(Nc3ccc(Oc4ccccc4)c(C)c3C)c2cc1OC | PRKAA1 with beta1, gamma1 | kinase activity, inhibitor |  | 1 µM |  | inhibition | -2%
Cc1ccc(C(=O)NCc2ccsc2)cc1C#Cc1cn(C(C)C)c2ncnc(N)c12 | PRKAA1 | kinase activity |  | 1 µM, together with: ATP at Km |  | remaining activity | 94%

Some of these lines once more:
SMILES | target or system | assay | test system | conditions | how to read | measurement | result
CN(C)C1CCN(CC#Cc2nn(C3CCCC3)c3nc(NCc4ccccc4)ncc23)C1 (stereo not shown) | PRKAA1 with beta1, gamma1 | enzyme activity, inhibitor, Z'-LYTE |  | 100 nM |  | inhibition | 0%
NC(=O)c1ccc(I)c([N+](=O)[O-])c1 | OCI-Ly1 |  |  | 1 µM, 120 h |  | viability | 161%
